Assay results pooled from the literature.
Protocols differ between the studies behind these lines. Numbers after ± are the reported error.

CC(C)[C@H](NC(=O)[C@@H]1CCCN1C(=O)[C@H](CCCNC(=N)N)NC(=O)[C@H](CS)NC(=O)[C@H](Cc1c[nH]c2ccccc12)NC(=O)[C@H](CCCNC(=N)N)NC(=O)[C@@H](Cc1ccccc1)NC(=O)[C@H](Cc1c[nH]cn1)NC(=O)[C@H](CCC(=O)O)NC(=O)[C@H](CS)NC(=O)[C@H](CS)NC(=O)[C@@H]1CC(=O)N[C@@H](CCCNC(=N)N)C(=O)NCC(=O)N[C@@H](CC(=O)O)C(=O)N[C@H](Cc2ccc(O)cc2)C(=O)N1)C(N)=O [technetium-99m labelled]  tissue uptake (C57 mouse, female, B16/F1 melanoma, skin; intravenous, 0.037 MBq, 0.5 h): 7.49 ± 1.75 %ID/g
O=C([O-])CN1CCN(CC(=O)[O-])CCN(CC(=O)NCCc2ccc3c(c2)C2C=CCC2C(c2cc4c(cc2Br)OCO4)N3)CCN(CC(=O)[O-])CC1.[111In+3] (stereo not shown)  tissue uptake (mouse, Hec50 endometrial tumour, kidneys; 2 h post injection): 1.62 ± 0.53 %ID/g
CN(C)c1ccc(-c2nc3ccc(OCCCCCN4CCN5CCN(CC4)CC(=O)[O][Al]([18F])[O]C(=O)C5)cc3s2)cc1  tissue uptake (ICR mouse, blood; intravenous, 2 min): 7.81 ± 0.85 %ID/g
O=C(O)C1CN(Cc2ccc(-c3noc(-c4ccc(OCC[18F])c(C(F)(F)F)c4)n3)cc2)C1  tissue uptake (Sprague-Dawley rat, male, normal, fat; iv, 5 min): 0.051 ± 0.011 %ID/g
O=C([O-])c1cccc(CN(CCN(Cc2cn(Cc3ccccc3)nn2)Cc2cccc(C(=O)[O-])n2)Cc2cn(Cc3ccccc3)nn2)n1.[64Cu+2]  tissue uptake (healthy athymic nude mice, spleen; intravenous, 24 h): 3.13 %ID/g
NC12CNCCNCC(NCc3ccc(CNC(=O)CCCC(=O)NCc4ccc(-c5nncnn5)cc4)cc3)(CNCCNC1)CNCCNC2.[64Cu+2]  tissue uptake (athymic nude mice SW1222 xenograft, liver; 4 h post injection, 24 h accumulation interval, together with: huA33-TCO pretargeting): 1.45 ± 0.21 %ID/g
OCc1cn(Cc2ccc(-c3noc(-c4ccc(OCC[18F])c(C(F)(F)F)c4)n3)cc2)nn1  tissue uptake (female Lewis rat, thymus; intravenous, 120 min): 0.78 ± 0.05 %ID/g
CCCC[C@H](NC(=O)CNC(=O)CNC(=O)CN1CCN(CC(=O)O)CCN(CC(=O)O)CC1)C(=O)N[C@H]1CC(=O)NCCCC[C@@H](C(N)=O)NC(=O)[C@H](Cc2c[nH]c3ccccc23)NC(=O)[C@H](CCCNC(=N)N)NC(=O)[C@@H](Cc2ccccc2)NC(=O)[C@H](Cc2c[nH]cn2)NC1=O [copper-64 labelled]  tissue uptake (female C57 mouse, B16/F1 melanoma, bone; intravenous, 0.037 MBq, 24 h): 0.09 ± 0.07 %ID/g
CC(C)[C@H](NC(=O)[C@@H]1CCCN1C(=O)[C@H](CCCNC(=N)N)NC(=O)[C@H](CS)NC(=O)[C@H](Cc1c[nH]c2ccccc12)NC(=O)[C@H](CCCNC(=N)N)NC(=O)[C@@H](Cc1ccccc1)NC(=O)[C@H](Cc1c[nH]cn1)NC(=O)[C@H](CCC(=O)O)NC(=O)[C@H](CS)NC(=O)[C@H](CS)NC(=O)CNC(=O)[C@@H]1CC(=O)N[C@@H](CCCNC(=N)N)C(=O)NCC(=O)N[C@@H](CC(=O)O)C(=O)N[C@H](Cc2ccc(O)cc2)C(=O)N1)C(N)=O [technetium-99m labelled]  tissue uptake (C57 mouse, female, B16/F1 melanoma, bone; intravenous, 0.037 MBq, 0.5 h): 2.02 ± 0.51 %ID/g
CCCC[C@H](NC(=O)CNC(=O)CNC(=O)CN1CCN(CC(=O)O)CCN(CC(=O)O)CCN(CC(=O)O)CC1)C(=O)N[C@H]1CC(=O)NCCCC[C@@H](C(N)=O)NC(=O)[C@H](Cc2c[nH]c3ccccc23)NC(=O)[C@H](CCCNC(=N)N)NC(=O)[C@@H](Cc2ccccc2)NC(=O)[C@H](Cc2c[nH]cn2)NC1=O [lead-203 labelled]  tissue uptake (C57 mouse, kidneys; intravenous, 0.056 MBq, 2 h): 5.84 ± 2.86 %ID/g
CCCC[C@H](NC(=O)CNC(=O)CNC(=O)CN1CCN(CC(=O)O)CCN(CC(=O)O)CCN(CC(=O)O)CC1)C(=O)N[C@H]1CC(=O)NCCCC[C@@H](C(N)=O)NC(=O)[C@H](Cc2c[nH]c3ccccc23)NC(=O)[C@H](CCCNC(=N)N)NC(=O)[C@@H](Cc2ccccc2)NC(=O)[C@H](Cc2c[nH]cn2)NC1=O [copper-64 labelled]  tissue uptake (female C57 mouse, B16/F1 melanoma, stomach; intravenous, 0.037 MBq, 4 h): 5.09 ± 0.69 %ID/g
CCCC[C@H](NC(=O)CNC(=O)CNC(=O)CN1CCN(CC(=O)O)CCN(CC(=O)O)CCN(CC(=O)O)CC1)C(=O)N[C@H]1CC(=O)NCCCC[C@@H](C(N)=O)NC(=O)[C@H](Cc2c[nH]c3ccccc23)NC(=O)[C@H](CCCNC(=N)N)NC(=O)[C@@H](Cc2ccccc2)NC(=O)[C@H](Cc2c[nH]cn2)NC1=O [gallium-67 labelled]  tissue uptake (female C57 mice, B16/F1 melanoma, spleen; intravenous, 0.037 MBq, 2 h): 0.44 ± 0.09 %ID/g
C[C@H](CN(C)Cc1ccccc1)NC(=O)c1ccc(-c2noc(C(F)(F)[18F])n2)cc1  tissue uptake (PET imaging; female Sprague-Dawley rats, heart; intravenous, 1 min): 3.71 ± 2.29 SUV

Some of these lines once more:
CC(C)[C@H](NC(=O)[C@@H]1CCCN1C(=O)[C@H](CCCNC(=N)N)NC(=O)[C@H](CS)NC(=O)[C@H](Cc1c[nH]c2ccccc12)NC(=O)[C@H](CCCNC(=N)N)NC(=O)[C@@H](Cc1ccccc1)NC(=O)[C@H](Cc1c[nH]cn1)NC(=O)[C@H](CCC(=O)O)NC(=O)[C@H](CS)NC(=O)[C@H](CS)NC(=O)CNC(=O)[C@@H]1CC(=O)N[C@@H](CCCNC(=N)N)C(=O)NCC(=O)N[C@@H](CC(=O)O)C(=O)N[C@H](Cc2ccc(O)cc2)C(=O)N1)C(N)=O [technetium-99m labelled]  tissue uptake (C57 mouse, female, B16/F1 melanoma, bone; intravenous, 0.037 MBq, 0.5 h): 2.02 ± 0.51 %ID/g
